# Assay results gathered from unrelated publications.
# ± gives the spread as reported.
# CYP2C9: Cytochrome P450 2C9 (CYP2C9, Homo sapiens, UniProt P11712)
# Chain of UniProt P11712 (whole entry, looked up): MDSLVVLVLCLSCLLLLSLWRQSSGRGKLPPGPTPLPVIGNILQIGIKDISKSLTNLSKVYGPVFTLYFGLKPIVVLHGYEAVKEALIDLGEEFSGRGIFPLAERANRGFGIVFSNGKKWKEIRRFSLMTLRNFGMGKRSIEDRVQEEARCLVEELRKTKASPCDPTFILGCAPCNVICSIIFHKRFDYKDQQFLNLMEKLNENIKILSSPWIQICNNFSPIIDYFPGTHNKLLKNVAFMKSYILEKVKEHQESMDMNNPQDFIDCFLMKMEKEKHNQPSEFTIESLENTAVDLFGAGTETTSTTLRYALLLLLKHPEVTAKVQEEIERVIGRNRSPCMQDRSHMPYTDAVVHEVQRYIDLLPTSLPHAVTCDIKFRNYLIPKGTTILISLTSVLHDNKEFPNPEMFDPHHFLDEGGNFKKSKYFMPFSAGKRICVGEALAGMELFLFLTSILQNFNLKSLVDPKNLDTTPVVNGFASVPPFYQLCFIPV
# Cytochrome P450 2A13: Cytochrome P450 2A13 (Homo sapiens, UniProt Q16696)
# Chain of UniProt Q16696 (whole entry, looked up): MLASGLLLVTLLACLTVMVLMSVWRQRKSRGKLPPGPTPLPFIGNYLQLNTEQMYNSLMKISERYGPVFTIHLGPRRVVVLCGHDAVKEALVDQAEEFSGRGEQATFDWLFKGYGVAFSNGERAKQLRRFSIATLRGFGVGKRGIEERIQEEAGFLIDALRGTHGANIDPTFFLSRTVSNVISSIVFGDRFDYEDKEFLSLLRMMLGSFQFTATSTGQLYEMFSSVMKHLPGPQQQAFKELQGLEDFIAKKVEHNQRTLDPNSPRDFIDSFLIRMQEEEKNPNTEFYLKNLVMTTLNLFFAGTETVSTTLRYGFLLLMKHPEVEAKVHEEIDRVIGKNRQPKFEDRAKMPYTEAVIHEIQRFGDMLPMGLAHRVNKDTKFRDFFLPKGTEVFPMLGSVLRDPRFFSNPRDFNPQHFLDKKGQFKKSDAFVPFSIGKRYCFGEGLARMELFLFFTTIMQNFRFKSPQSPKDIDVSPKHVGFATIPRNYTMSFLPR
# ALB: Albumin (ALB, Homo sapiens, UniProt P02768)
# ABCB1: ATP-dependent translocase ABCB1 (ABCB1, Homo sapiens, UniProt P08183)
# Chain of UniProt P08183 (whole entry, looked up): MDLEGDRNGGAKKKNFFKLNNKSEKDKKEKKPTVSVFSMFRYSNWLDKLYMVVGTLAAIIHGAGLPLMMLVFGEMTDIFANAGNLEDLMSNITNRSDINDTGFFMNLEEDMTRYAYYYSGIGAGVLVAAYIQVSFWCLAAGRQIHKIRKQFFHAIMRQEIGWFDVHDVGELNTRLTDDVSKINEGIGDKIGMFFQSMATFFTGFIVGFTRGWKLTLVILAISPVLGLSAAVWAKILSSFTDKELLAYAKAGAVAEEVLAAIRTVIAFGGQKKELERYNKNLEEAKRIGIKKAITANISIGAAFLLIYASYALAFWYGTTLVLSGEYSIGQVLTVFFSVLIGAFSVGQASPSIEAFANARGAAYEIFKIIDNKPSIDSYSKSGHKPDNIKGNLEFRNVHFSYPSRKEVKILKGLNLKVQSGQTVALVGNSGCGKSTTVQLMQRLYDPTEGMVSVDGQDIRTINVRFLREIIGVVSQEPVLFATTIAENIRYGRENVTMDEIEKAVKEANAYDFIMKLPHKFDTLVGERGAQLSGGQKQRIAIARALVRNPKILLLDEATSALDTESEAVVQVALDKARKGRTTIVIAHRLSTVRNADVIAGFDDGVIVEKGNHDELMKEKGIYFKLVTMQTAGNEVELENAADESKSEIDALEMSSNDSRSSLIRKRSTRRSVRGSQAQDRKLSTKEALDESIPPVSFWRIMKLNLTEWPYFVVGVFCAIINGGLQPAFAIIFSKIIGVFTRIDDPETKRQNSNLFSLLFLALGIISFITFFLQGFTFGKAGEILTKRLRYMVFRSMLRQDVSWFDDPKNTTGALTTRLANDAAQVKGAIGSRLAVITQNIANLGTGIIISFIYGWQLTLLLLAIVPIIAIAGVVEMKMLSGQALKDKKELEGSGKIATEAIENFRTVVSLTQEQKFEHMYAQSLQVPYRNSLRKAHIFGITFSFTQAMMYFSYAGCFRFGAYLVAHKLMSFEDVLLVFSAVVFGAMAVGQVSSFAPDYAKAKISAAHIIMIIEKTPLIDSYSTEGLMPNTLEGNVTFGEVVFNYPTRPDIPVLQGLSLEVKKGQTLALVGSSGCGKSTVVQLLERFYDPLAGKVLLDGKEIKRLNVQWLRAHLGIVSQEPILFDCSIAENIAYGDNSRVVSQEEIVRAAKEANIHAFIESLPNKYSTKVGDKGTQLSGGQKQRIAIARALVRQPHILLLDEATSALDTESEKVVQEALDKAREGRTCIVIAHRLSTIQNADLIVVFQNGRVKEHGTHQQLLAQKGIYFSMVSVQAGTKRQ
# CYP2A6: Cytochrome P450 2A6 (CYP2A6, Homo sapiens, UniProt P11509)
# Chain of UniProt P11509 (whole entry, looked up): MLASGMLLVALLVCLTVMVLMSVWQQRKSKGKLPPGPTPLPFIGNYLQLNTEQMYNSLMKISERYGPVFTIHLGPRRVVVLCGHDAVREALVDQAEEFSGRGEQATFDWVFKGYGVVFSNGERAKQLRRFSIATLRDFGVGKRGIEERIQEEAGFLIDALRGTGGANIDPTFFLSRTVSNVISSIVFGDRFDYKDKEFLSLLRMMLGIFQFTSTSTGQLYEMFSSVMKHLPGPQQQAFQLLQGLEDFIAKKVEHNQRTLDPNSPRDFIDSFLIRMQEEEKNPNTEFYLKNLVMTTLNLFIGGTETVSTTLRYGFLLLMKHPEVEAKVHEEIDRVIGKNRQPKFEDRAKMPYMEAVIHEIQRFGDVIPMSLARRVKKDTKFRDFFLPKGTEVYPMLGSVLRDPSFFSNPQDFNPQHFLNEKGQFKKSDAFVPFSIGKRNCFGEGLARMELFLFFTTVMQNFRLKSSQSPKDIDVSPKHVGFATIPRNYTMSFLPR
# NR1I2: Nuclear receptor subfamily 1 group I member 2 (NR1I2, Homo sapiens, UniProt O75469)
# Chain of UniProt O75469 (whole entry, looked up): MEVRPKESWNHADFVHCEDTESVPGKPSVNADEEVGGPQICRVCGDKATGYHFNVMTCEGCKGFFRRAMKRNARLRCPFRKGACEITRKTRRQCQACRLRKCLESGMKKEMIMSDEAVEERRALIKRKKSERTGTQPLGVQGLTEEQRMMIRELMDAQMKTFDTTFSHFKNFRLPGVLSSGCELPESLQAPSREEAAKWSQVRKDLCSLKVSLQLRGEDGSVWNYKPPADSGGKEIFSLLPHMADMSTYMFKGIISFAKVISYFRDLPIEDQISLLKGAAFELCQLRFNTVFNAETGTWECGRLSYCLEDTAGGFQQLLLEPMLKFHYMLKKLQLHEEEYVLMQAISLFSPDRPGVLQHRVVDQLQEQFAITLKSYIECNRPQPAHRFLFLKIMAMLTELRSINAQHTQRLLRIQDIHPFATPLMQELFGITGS
# Chain of UniProt Q05421 (whole entry, looked up): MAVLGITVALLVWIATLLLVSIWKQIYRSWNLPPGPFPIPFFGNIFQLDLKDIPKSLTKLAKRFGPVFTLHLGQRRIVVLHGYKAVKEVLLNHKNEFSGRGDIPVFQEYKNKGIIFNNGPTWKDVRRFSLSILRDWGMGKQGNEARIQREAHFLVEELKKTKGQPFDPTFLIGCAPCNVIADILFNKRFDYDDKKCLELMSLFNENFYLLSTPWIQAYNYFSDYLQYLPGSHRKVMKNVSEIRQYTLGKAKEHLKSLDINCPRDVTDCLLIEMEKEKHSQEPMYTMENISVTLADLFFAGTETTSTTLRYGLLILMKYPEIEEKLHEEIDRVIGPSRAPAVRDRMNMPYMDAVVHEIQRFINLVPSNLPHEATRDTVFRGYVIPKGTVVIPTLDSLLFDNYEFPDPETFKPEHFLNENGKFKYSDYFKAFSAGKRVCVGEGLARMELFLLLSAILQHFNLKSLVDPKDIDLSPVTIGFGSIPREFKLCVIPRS
# Chain of UniProt P08682 (whole entry, looked up): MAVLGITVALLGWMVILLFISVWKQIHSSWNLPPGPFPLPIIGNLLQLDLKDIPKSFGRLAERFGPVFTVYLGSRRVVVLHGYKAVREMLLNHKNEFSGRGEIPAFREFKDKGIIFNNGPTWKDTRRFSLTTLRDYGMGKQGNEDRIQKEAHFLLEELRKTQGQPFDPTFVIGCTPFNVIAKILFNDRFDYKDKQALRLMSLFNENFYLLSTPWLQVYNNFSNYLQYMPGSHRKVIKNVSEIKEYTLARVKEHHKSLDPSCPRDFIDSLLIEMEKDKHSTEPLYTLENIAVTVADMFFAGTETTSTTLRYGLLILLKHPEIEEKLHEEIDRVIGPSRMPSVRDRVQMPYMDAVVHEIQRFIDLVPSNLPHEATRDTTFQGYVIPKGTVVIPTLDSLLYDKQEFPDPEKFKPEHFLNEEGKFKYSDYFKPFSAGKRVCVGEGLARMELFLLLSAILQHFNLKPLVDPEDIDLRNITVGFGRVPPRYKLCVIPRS
Substance,tested on,test,system,setting,scale,endpoint,result
C#CCOc1ccc2c(C(F)(F)F)cc(=O)oc2c1,human CYP3A4,"enzyme inactivation, inactivator",reconstituted system,added: BFC O-debenzylation substrate,,KI,14 µM
Cc1ncccc1NC(=O)c1ccc2c(c1)CC[C@@H]1C[C@@](O)(C(F)(F)F)CC[C@@]21Cc1ccccc1,"CYP3A4/5, human","time-dependent inhibitor, refers to: 1'-hydroxymidazolam",pooled human liver microsomes,added: midazolam 23 µM,,kinact,~0.00367 s⁻¹
O=C1Cc2cc(CCN3CCN(c4nsc5ccccc45)CC3)c(Cl)cc2N1,CYP2C9,inhibitor,human liver microsomes,"2 µM, pH 7.4, added: diclofenac",,inhibition,3.68%
C[C@@H]1CC[C@]2(C(=O)O)CC[C@]3(C)C(=CC[C@@H]4[C@@]5(C)CC[C@H](O)[C@@](C)(CO)[C@@H]5CC[C@]43C)[C@@H]2[C@]1(C)O,CYP3A4/5,"midazolam 1'-hydroxylation, inhibitor, probe cocktail incubation",pooled human liver microsomes,"50 µM, 20 min, added: midazolam 1.535 µM",,remaining activity,84.5%
CCN(CC)C(=S)S,"CYP isoforms, human",inhibitor,human liver microsomes,"Ki and twice Ki, 1.5 h, 37 °C, added: OMT 50 µM",reference: no inhibitor,MT formation rate,inhibited
C#CCOCc1ccc(-c2ccccc2)cc1,Cytochrome P450 2A13,"binding, absorbance",,pH 7.4,,Kd,66 µM
C=C1CC[C@@H]2[C@](C)(CO)[C@H](O)CC[C@@]2(C)[C@@H]1C/C=C1/C(=O)OC[C@H]1O,ALB,HPLC-based,human plasma,,,fraction unbound,0.12
Clc1cc(Cl)c(-c2ccc(Cl)c(Cl)c2Cl)cc1Cl,PXR (polar bear),"reporter gene, agonist, luciferase",COS-7,24 h,reference: DMSO,fold induction,1.1 ± 0.1 fold
C#CCOCc1cccc2ccccc12,Cytochrome P450 2A13,"binding, absorbance",,pH 7.4,,Kd,13.3 µM
calcein AM,ABCB1,"ATPase activity, substrate",membranes,added: ATP 1 mM,,Km,3.1 ± 0.5 µM
CC(C)C[C@H](NC(=O)[C@H](CO)NC(=O)[C@H](CC(C)C)NC(=O)[C@@H]1CCCN1C(=O)CNC(=O)[C@H](Cc1ccccc1)NC(=O)Cc1ccc2ccccc2c1)C(=O)N[C@@H](CCCNC(=N)N)C(=O)N[C@@H](CO)C(=O)N[C@@H](CCCCN)C(=O)O,"MMP9 (Homo sapiens, UniProt P14780)","protease stability, substrate, HPLC",,"500 µM, pH 7.5, 37 °C, added: MMP9 10 U",,time to complete digestion,8 h
Oc1ccc(/C=C/c2cc(O)cc(O)c2)cc1,UGT1A10 human recombinant,"substrate, refers to: 3-glucuronide",,pH 7.4,,Km,489 ± 72 µM
CCc1c2c(nc3ccc(O)cc13)-c1cc3c(c(=O)n1C2)COC(=O)[C@]3(O)CC,"UGT1A9 (Homo sapiens, UniProt O60656)",substrate,,"pH 7.4, 37 °C",,Km,26.4 µM
Clc1ccc(-c2ccc(Cl)c(Cl)c2)cc1Cl,"Aryl hydrocarbon receptor (AHR, Delphinapterus leucas, UniProt Q95LD9)","binding, competitor",,"in vitro expressed receptor, added: [3H]TCDD",,Ki,0.0078 µM
Clc1cc(Cl)c(-c2c(Cl)cc(Cl)c(Cl)c2Cl)cc1Cl,PXR (polar bear),"reporter gene, agonist, luciferase",COS-7,24 h,reference: DMSO,fold induction,3 ± 0.6 fold
CC[C@H](C)[C@@H]1NC(=O)[C@H](CCC(=O)O)NC(=O)[C@@H](NC(=O)[C@@H](NC(=O)CNC(=O)[C@H](CO)NC(=O)[C@H](CC(C)C)NC(=O)[C@H](CO)NC(=O)[C@H](CCC(=O)O)NC(=O)[C@H](CCCNC(=N)N)NC(=O)[C@@H](NC(=O)[C@H](C)NC(=O)[C@@H]2CSSC[C@H](NC(=O)[C@H](Cc3ccc(O)cc3)NC(=O)[C@H](CO)NC(=O)[C@@H](NC(=O)[C@H](C)N)[C@@H](C)O)C(=O)N[C@@H](CCCNC(=N)N)C(=O)N[C@@H]([C@@H](C)O)C(=O)NCC(=O)N[C@@H](CCCNC(=N)N)C(=O)N2)[C@@H](C)O)C(C)C)CSSC[C@@H](C(=O)N[C@@H](CO)C(=O)N[C@@H](CCCNC(=N)N)C(=O)O)NC(=O)[C@H](CC(C)C)NC(=O)[C@H](CCCNC(=N)N)NC(=O)[C@H](Cc2ccc(O)cc2)NC(=O)[C@H](CC(C)C)NC(=O)[C@H](CCCNC(=N)N)NC(=O)CNC(=O)[C@H](CO)NC1=O,trypsin,"proteolytic degradation, substrate",,"80 µM, pH 8.2, room temperature",,time to full digestion,≤ 2 min
Oc1cc(O)cc(/C=C/c2ccc(O)c(O)c2)c1,UGT1A10 human recombinant,"substrate, refers to: 3-glucuronide",,pH 7.4,,Km,44.5 ± 10.9 µM
c1cn[nH]c1,"CYP2E1 (Oryctolagus cuniculus, UniProt P08682)","binding, type II spectral titration",,"pH 7.4, 25 °C, second site",,Kd,6000 µM
COc1ccc2c3c1O[C@H]1C[C@@H](OC(=O)CCCCCCCCC(=O)O[C@H]4C=C[C@@]56CCN(C)Cc7ccc(OC)c(c75)O[C@H]6C4)C=C[C@@]31CCN(C)C2,ABCB1,"doxorubicin accumulation, inhibitor, flow cytometry",MCF7/DX1,added: 3 µM doxorubicin,,IC50,0.5 ± 0.1 µM
C#CCOCCc1ccc2ccccc2c1,CYP2A6,"binding, absorbance",,pH 7.4,,Kd,19 µM
O=Cc1c2[nH]c3ccccc3c2cc2[nH]c3ccccc3c12,CYP1A,"EROD activity, inducer",Hepa-1c1c7 (mouse),3 h,,EC50,0.04 ± 0.01 nM
C=C(C)[C@@H]1CCC(C)=C[C@H]1c1c(O)cc(CCCCC)cc1O,CYP2A6,"nicotine C-oxidation to cotinine, inhibitor",microsomes of overexpressing HEK293 cells,"10 µM, 30 min, pH 7.4, added: nicotine 100 µM",,inhibition,70%
O=C(O)COc1ccc(C(=O)c2cccs2)c(Cl)c1Cl,CYP2C8 human,"M3 formation from THC, inhibitor",human liver microsomes,"50 µM, six individual donors, added: THC 2 µM",,inhibition,no effect
Brc1ccc(Oc2cc(Br)c(Br)cc2Br)c(Br)c1,PXR (polar bear),"reporter gene, agonist, luciferase",COS-7,24 h,reference: DMSO,fold induction,1.6 ± 0.3 fold
C#CCOc1ccccc1-c1ccccc1,CYP2A6,"binding, absorbance",,pH 7.4,,Kd,15 µM
Clc1ccc(Cl)c(-c2cc(Cl)ccc2Cl)c1,NR1I2,"reporter gene, agonist, luciferase",COS-7,24 h,reference: DMSO,fold induction,1.1 ± 0.2 fold
CC1=C(/C=C/C(C)=C/C=C/C(C)=C/C=C/C=C(C)/C=C/C=C(C)/C=C/C2=C(C)C[C@H](O)CC2(C)C)C(C)(C)C[C@H](O)C1,ALB,"binding, SPR",,,,Kd,1.3 µM
C#CCOc1ccc(-c2ccccc2)cc1,Cytochrome P450 2A13,"binding, absorbance",,pH 7.4,,Kd,0.48 µM
Nc1ccncc1[18F],"Cytochrome P450 2E1 (Cyp2e1, Mus musculus, UniProt Q05421)",,"mouse, awake, plasma","intravenous, 35 min, added: disulfiram 40 mg/kg intraperitoneal 2 h before",,parent fraction,50%
O=C1Nc2ccc(Cl)cc2[C@@](C#CC2CC2)(C(F)(F)F)O1,NR1I2,"reporter gene, activator",HepG2 transfected,"10 µM, 24 h",reference: DMSO,PXR activation,~4.3 fold
CN[C@@](C)(C[18F])C(=O)O,,,"SCID mouse MDA-MB-468 xenograft, brain","120 min, post injection",,tissue uptake,0.3 ± 0.1 %ID/g
CC(C)[C@@H]1NC(=O)c2csc(n2)[C@H](C(C)C)NC(=O)c2csc(n2)[C@H](C(C)C)NC(=O)c2csc(n2)[C@H](C(C)C)NC(=O)c2csc1n2,ABCB1,"efflux transport, inhibitor, flow cytometry","HeLa, BacMam P-gp transduced","10 µM, 45 min, added: Bodipy-FL-prazosin",reference: 1 µM tariquidar,inhibition,79%
"CCC1(c2ccccc2)NC(=O)N(Cc2ccccc2)C1=O (single isomer, unassigned; (+))",CYP (human),"THC M4 formation, inhibitor",human liver microsomes,"5 µM, added: THC 2 µM",,inhibition,no inhibition
CC(=O)CC(c1ccccc1)c1c(O)c2cc(O)ccc2oc1=O (stereo not shown),CYP2C9,"enzyme activity, inhibitor","human, liver microsomes",,,Ki,167 µM
COc1cc2nc(N3CCN(C(=O)c4ccco4)CC3)nc(N)c2cc1OC,"ABCG2 (Homo sapiens, UniProt Q9UNQ0)",,MDCKII-BCRP,"5 µM, 20 min, pH 7.4",reference: MDCKII-mock,intracellular accumulation decrease,69%
CC(=O)C(O)C(c1ccccc1)c1c(O)c2ccccc2oc1=O (stereo not shown),CYP2C9,"enzyme activity, inhibitor","human, liver microsomes",,,Ki,2.2 µM
Clc1cc(Cl)c(-c2cccc(Cl)c2Cl)cc1Cl,NR1I2,"reporter gene, agonist, luciferase",COS-7,24 h,reference: DMSO,fold induction,2.4 ± 0.4 fold

# For quick reference, copied from above:
Substance,tested on,test,system,setting,scale,endpoint,result
C#CCOc1ccccc1-c1ccccc1,CYP2A6,"binding, absorbance",,pH 7.4,,Kd,15 µM
Clc1ccc(Cl)c(-c2cc(Cl)ccc2Cl)c1,NR1I2,"reporter gene, agonist, luciferase",COS-7,24 h,reference: DMSO,fold induction,1.1 ± 0.2 fold
CC1=C(/C=C/C(C)=C/C=C/C(C)=C/C=C/C=C(C)/C=C/C=C(C)/C=C/C2=C(C)C[C@H](O)CC2(C)C)C(C)(C)C[C@H](O)C1,ALB,"binding, SPR",,,,Kd,1.3 µM
C#CCOc1ccc(-c2ccccc2)cc1,Cytochrome P450 2A13,"binding, absorbance",,pH 7.4,,Kd,0.48 µM
Nc1ccncc1[18F],"Cytochrome P450 2E1 (Cyp2e1, Mus musculus, UniProt Q05421)",,"mouse, awake, plasma","intravenous, 35 min, added: disulfiram 40 mg/kg intraperitoneal 2 h before",,parent fraction,50%
